Assay results of several laboratories.
Each line is one published result; not all experiments were run side by side. ± marks the error that the study gave.
Cell line: MCF7

Structure (SMILES) = CCS(=O)(=O)Oc1cc(/C=N/NC(=O)c2nc3ccccc3s2)ccc1OC; assay = cell growth or viability, MTT; setting = 100 µM, 48 h; endpoint = cell death; result = 53.4%
Structure (SMILES) = COc1cc2c(=O)c(-c3ccc4c(c3)OCO4)coc2c2c1OC(C)(C)C=C2; assay = annexin V/PI flow cytometry; setting = 20 µM, 48 h; endpoint = apoptotic cells; result = 39.3%
Structure (SMILES) = CC(=NNC(=S)NN=C(C(=NO)c1ccccc1)c1ccccc1)c1ccccc1; assay = Western blot, item: HO-1; setting = IC50 concentration, 24 h; how to read = baseline: untreated; endpoint = relative protein level; result = 1.45 ± 0.06
Structure (SMILES) = CC(C)(C)c1cc2c(O)c(c1)Cc1cc(C(C)(C)C)cc(c1OCC(=O)Nc1cncc3ccccc13)Cc1cc(C(C)(C)C)cc(c1O)Cc1cc(C(C)(C)C)cc(c1OCC(=O)Nc1cncc3ccccc13)COC2; assay = western blot; setting = 0, 10, 20 µM; endpoint = cleaved caspase-3 level; result = increased
Structure (SMILES) = CCC(=C(c1ccc(Cl)cc1)c1ccc(OCCCN(C)C)cc1)c1ccccc1; assay = cell growth or viability; setting = 10 µM; endpoint = inhibition; result = 38.8%
Structure (SMILES) = OC(c1cccc(Cl)c1)c1c[nH]c2ncc(C(F)(F)F)cc12 (centres unmarked); assay = cell growth or viability; setting = 10 µM, 72 h; endpoint = inhibition; result = 14%
Structure (SMILES) = O=C(c1ccc2ccccc2c1)c1cn(-c2ccccc2)nc1C1=Nn2c(Cc3nnc4n3N=C(c3nn(-c5ccccc5)cc3C(=O)c3ccc5ccccc5c3)CS4)nnc2SC1; assay = RT-PCR, item: caspase-9; setting = IC50, 48 h; how to read = baseline: untreated; endpoint = mRNA level; result = 10.6 fold
Structure (SMILES) = COc1cc(/C=C/C(=O)CC(C)=O)ccc1O; setting = 25 µM, 48 h; how to read = baseline: untreated; endpoint = GSH/GSSG ratio increase; result = ~7 fold
Structure (SMILES) = CN(C)c1ccc(/C=C/c2cc(/C=C3\Sc4ccccc4N3CCCN3CCCC3)c3ccccc3[n+]2C)cc1; assay = Western blot; setting = concentration not given, 36 h; endpoint = hTERT protein level; result = decreased
Structure (SMILES) = NS(=O)(=O)c1ccc(/N=N/c2ccc(O)c(/C=N/CCc3c[nH]c4ccccc34)c2)cc1; assay = MTT; setting = 72 h; how to read = baseline: MCF10A IC50 over MCF7 IC50; endpoint = selectivity index; result = 2.78
Structure (SMILES) = CN1CCN(c2ccc(C(=O)/C=C/Nc3ccc(S(N)(=O)=O)cc3)cc2)CC1; assay = annexin V/PI; setting = concentration not given; endpoint = late apoptotic cells; result = 26.4%
Structure (SMILES) = COc1ccc(-c2cc(COC3c4cc5c(cc4C(c4cc(OC)c(OC)c(OC)c4)C4C(=O)OCC34)OCO5)on2)cc1 (centres unmarked); assay = Caspase-Glo 3/7; setting = 20 µg/mL, 24 h; endpoint = caspase-3/7 activation; result = 94.5%
Structure (SMILES) = CN(C)c1cccc2c(S(=O)(=O)NCCCCCC(=O)NO)cccc12; assay = cell cycle, propidium iodide flow cytometry; setting = 1 µM; endpoint = cells in G2 phase; result = 11.3%
Structure (SMILES) = CCCc1cc(O)nc(SCCOC(=O)[C@]2(C)CCC[C@]3(C)c4ccc(C(C)C)cc4CCC23)n1 (some centres unmarked); assay = PI flow cytometry; setting = 15 µM, 48 h; endpoint = S-phase cells; result = 40.7%
Structure (SMILES) = CCC(=C(c1ccc(Cl)cc1)c1ccc(OCCN2CCCCCC2)cc1)c1ccccc1; assay = cell growth or viability; setting = 10 µM; endpoint = inhibition; result = 23.7%
Structure (SMILES) = COc1ccc(/C=C/C(=O)c2ccc(NC(=O)c3ccccc3CN3C(=O)c4ccccc4C3=O)cc2)c(OC)c1; assay = annexin V/PI staining; setting = IC50, 24 h; how to read = baseline: untreated; endpoint = early apoptotic cells; result = 14.9 fold
Structure (SMILES) = CCC[C@@H]1O[C@@H](Oc2c(-c3ccc(O)cc3)oc3cc(O)cc(O)c3c2=O)[C@H](OC(C)=O)[C@H](OC(C)=O)[C@H]1NC(C)=O; assay = inhibitor, immunoblot, item: phospho-eEF2; setting = 25 and 50 µM, added: PMA; how to read = baseline: PMA alone; endpoint = eEF2 phosphorylation; result = no effect
Structure (SMILES) = NS(=O)(=O)c1ccc(/N=N/c2ccc(O)c(/C=N/c3ccccn3)c2)cc1; assay = MTT; setting = 48 h; how to read = baseline: MCF10A IC50 over MCF7 IC50; endpoint = selectivity index; result = 6.02
Structure (SMILES) = Cc1ccc(C(C)C)cc1.[Cl-].[Cl][Ru+].[Ru+].c1ccc(-c2cn(CCCCOc3ccccc3-c3nc4ccccc4s3)nn2)nc1; assay = PI flow cytometry, item: G2/M phase; setting = 8 µM, 24 h; endpoint = cells in phase; result = 17.1%
Structure (SMILES) = FC(F)(F)C1(c2ccc(CN3CCN(C(c4ccccc4)c4ccc(Cl)cc4)CC3)cc2)CC1 (centres unmarked); setting = concentration not given, 72 h; endpoint = activity; result = inactive
Structure (SMILES) = CCC(=C(c1ccc(Cl)cc1)c1ccc(OCCCN(C)C)cc1)c1ccc(Cl)cc1; assay = cell growth or viability; setting = 10 µM; endpoint = inhibition; result = 60.7%
Structure (SMILES) = N=C(N)NCCC[C@H](NC(=O)[C@H](Cc1c[nH]c2ccccc12)NC(=O)[C@H](CCC(N)=O)NC(=O)[C@H](Cc1c[nH]c2ccccc12)NC(=O)[C@H](CCCNC(=N)N)NC(=O)[C@H](Cc1c[nH]c2ccccc12)NC(=O)[C@H](CCC(N)=O)NC(=O)[C@@H](N)Cc1c[nH]c2ccccc12)C(N)=O; how to read = baseline: MCF-12 IC50 over MCF7 IC50; endpoint = selectivity ratio; result = > 1.1
Structure (SMILES) = CCN(CC)CCOc1ccc(C(=C(C)Cc2ccc(Cl)cc2)c2ccc(Cl)cc2)cc1; assay = cell growth or viability; setting = 10 µM; endpoint = inhibition; result = 30.9%
Structure (SMILES) = NS(=O)(=O)c1ccc(/N=N/c2ccc(O)c(/C=N/c3cc([N+](=O)[O-])ccc3O)c2)cc1; assay = MTT; setting = 72 h; how to read = baseline: MCF10A IC50 over MCF7 IC50; endpoint = selectivity index; result = 0.53
Structure (SMILES) = COc1ccc(-c2nnc(-c3cc(-c4ccccc4)n(-c4ccc(S(N)(=O)=O)cc4)n3)o2)cc1; assay = real-time PCR, item: caspase-7; setting = concentration not given; how to read = baseline: untreated cells; endpoint = mRNA level; result = 4.8 fold
Structure (SMILES) = Nc1ccccc1NC(=O)c1cnccn1; assay = PI flow cytometry; setting = IC50, 48 h; endpoint = cells in G0/G1-phase; result = 58.4%
Structure (SMILES) = COc1cccc2c1C(=O)c1c(O)c3c(c(O)c1C2=O)C[C@@](O)(C(=O)CO)C[C@@H]3O[C@H]1C[C@H](N)[C@H](O)[C@H](C)O1; setting = concentration not given, 4 h; endpoint = ROS production; result = increased
Structure (SMILES) = O=C1c2c(O)cc(O)cc2-c2c(-c3ccc(O)cc3)oc3cc(O)cc1c23; assay = label-free MS proteomics; how to read = baseline: tanespimycin; endpoint = unique upregulated proteins; result = ~51%
Structure (SMILES) = O=C1c2ccccc2C(=O)c2c1ccc1c2C(C(=O)Nc2ccccc2)C(=O)C1c1ccccc1 (centres unmarked); assay = cell growth or viability; endpoint = TGI; result = 22 µM
Structure (SMILES) = COc1cc(OC)cc(C(O)c2c[nH]c3ncc(C(F)(F)F)cc23)c1 (centres unmarked); assay = cell growth or viability; setting = 10 µM, 72 h; endpoint = inhibition; result = 33%
Structure (SMILES) = CC(=O)OC[C@H]1O[C@@H](Sc2sc(C(=O)c3ccc(C)cc3)c(N)c2-c2nc3ccccc3s2)[C@H](OC(C)=O)[C@@H](OC(C)=O)[C@@H]1OC(C)=O; assay = SRB; setting = 10 µM, 48 h; how to read = baseline: untreated; endpoint = growth; result = 73.6%
Structure (SMILES) = O=C(O)C=Cc1ccc(C(=C2C3CCCC2CCC3)c2ccc(O)cc2)cc1; assay = antagonist, real-time PCR; setting = 1 µM, added: 1 nM estradiol; endpoint = pS2 mRNA level; result = inhibited
Structure (SMILES) = O=C1c2ccccc2C(=O)c2c1ccc1c2C(C(=O)Nc2ccc(Br)cc2)C(=O)C1c1ccccc1 (centres unmarked); assay = cell growth or viability; endpoint = TGI; result = 45.3 µM
Structure (SMILES) = C[n+]1c(/C=C/c2ccc(N(c3ccccc3)c3ccccc3)cc2)cc(/C=C2\Sc3ccccc3N2CCCN2CCCC2)c2ccccc21; assay = qRT-PCR, item: hTERC; setting = concentration not given, 36 h; endpoint = mRNA level; result = decreased
Structure (SMILES) = CCCC(CCC)C(=O)[O][Pt]([Cl])([Cl])[O]C(=O)C(CCC)CCC.N.N; assay = GF-AAS; setting = 5 µM, 24 h; how to read = baseline: cellular platinum; endpoint = DNA-bound platinum; result = 18%
Structure (SMILES) = COc1ccc(CC(C)=C(c2ccc(Cl)cc2)c2ccc(OCCCN(C)C)cc2)cc1; assay = cell growth or viability; setting = 10 µM; endpoint = inhibition; result = 83.8%
Structure (SMILES) = C[C@]12CC[C@@H]3c4ccc(OCC(=O)N[C@@H](CCCCNC(=O)CN5CCN(CC(=O)[O-])CCN(CC(=O)[O-])CCN(CC(=O)[O-])CC5)C(=O)O)cc4CC[C@H]3[C@@H]1CCC2=O.[Ga+3] [gallium-68 labelled]; assay = saturation binding; setting = 60 min, room temperature; endpoint = Kd; result = 0.0177 ± 0.00374 µM
Structure (SMILES) = COc1ccc(NC(=O)CCc2nc3cc(Cl)ccc3[nH]c2=O)cc1; assay = annexin V-FITC flow cytometry; setting = concentration not given; how to read = baseline: untreated control; endpoint = total apoptotic cells; result = 10.2 fold
Structure (SMILES) = CN1CCC2(CC1)C/C(=N\NC(=O)Nc1ccccc1)c1ccccc1O2; assay = PI staining, flow cytometry; setting = concentration not given, %G0-G1; endpoint = cell cycle distribution; result = 46.4%
Structure (SMILES) = N=C(N)NCCC[C@H](NC(=O)[C@H](Cc1c[nH]c2ccccc12)NC(=O)[C@H](CCC(N)=O)NC(=O)[C@H](Cc1c[nH]c2ccccc12)NC(=O)[C@H](CCCNC(=N)N)NC(=O)[C@H](Cc1c[nH]c2ccccc12)NC(=O)[C@H](CCC(N)=O)NC(=O)[C@H](Cc1c[nH]c2ccccc12)NC(=O)[C@@H](N)CCCNC(=N)N)C(N)=O; assay = wound-healing; setting = concentration not given, 48 h; endpoint = wound area reduction; result = 3%
Structure (SMILES) = CCCCCCCCCCCCCCCC(=O)N[C@H](Cc1ccc(O)cc1)C(=O)N[C@H](CC(C)C)C(=O)N[C@@H](C(=O)NCC(=O)N[C@H](CC(N)=O)C(=O)NCC(=O)N[C@H](CC(C)C)C(=O)N[C@H](CCCNC(=N)N)C(=O)N[C@H](CO)C(=O)N[C@H](CC(N)=O)C(=O)N[C@H](CC(N)=O)C(=O)N[C@H](CCCNC(=N)N)C(N)=O)C(C)C; setting = 48 h, 1% FBS; endpoint = TGI; result = 0.5 ± 0.025 µM

Repeated from above:
Structure (SMILES) = COc1ccc(CC(C)=C(c2ccc(Cl)cc2)c2ccc(OCCCN(C)C)cc2)cc1; assay = cell growth or viability; setting = 10 µM; endpoint = inhibition; result = 83.8%
Structure (SMILES) = C[C@]12CC[C@@H]3c4ccc(OCC(=O)N[C@@H](CCCCNC(=O)CN5CCN(CC(=O)[O-])CCN(CC(=O)[O-])CCN(CC(=O)[O-])CC5)C(=O)O)cc4CC[C@H]3[C@@H]1CCC2=O.[Ga+3] [gallium-68 labelled]; assay = saturation binding; setting = 60 min, room temperature; endpoint = Kd; result = 0.0177 ± 0.00374 µM
Structure (SMILES) = COc1ccc(NC(=O)CCc2nc3cc(Cl)ccc3[nH]c2=O)cc1; assay = annexin V-FITC flow cytometry; setting = concentration not given; how to read = baseline: untreated control; endpoint = total apoptotic cells; result = 10.2 fold
